Published values pooled from the literature.
A part holds a random share of what one study measured.
Chain of UniProt Q16659 (whole entry, looked up): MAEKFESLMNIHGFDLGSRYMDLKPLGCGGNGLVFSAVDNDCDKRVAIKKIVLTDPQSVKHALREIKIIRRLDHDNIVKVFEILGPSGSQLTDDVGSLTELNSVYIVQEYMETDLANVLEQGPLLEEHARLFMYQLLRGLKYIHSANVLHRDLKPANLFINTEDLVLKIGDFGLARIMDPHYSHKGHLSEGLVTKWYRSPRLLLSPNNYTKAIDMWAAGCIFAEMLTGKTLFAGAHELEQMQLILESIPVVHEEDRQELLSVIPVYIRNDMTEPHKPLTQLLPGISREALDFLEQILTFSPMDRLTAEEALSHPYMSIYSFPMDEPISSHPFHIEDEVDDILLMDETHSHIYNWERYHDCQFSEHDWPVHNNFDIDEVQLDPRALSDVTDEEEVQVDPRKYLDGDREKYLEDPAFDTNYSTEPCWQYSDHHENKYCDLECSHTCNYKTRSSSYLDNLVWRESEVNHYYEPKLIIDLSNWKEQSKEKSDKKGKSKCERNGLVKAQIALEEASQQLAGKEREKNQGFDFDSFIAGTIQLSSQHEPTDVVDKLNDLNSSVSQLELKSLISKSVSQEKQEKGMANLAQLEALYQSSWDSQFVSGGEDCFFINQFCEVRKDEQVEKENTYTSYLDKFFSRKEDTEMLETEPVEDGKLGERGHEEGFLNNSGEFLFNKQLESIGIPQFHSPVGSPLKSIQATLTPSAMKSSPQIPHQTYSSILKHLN
Chain of UniProt Q9Y2H1 (whole entry, looked up): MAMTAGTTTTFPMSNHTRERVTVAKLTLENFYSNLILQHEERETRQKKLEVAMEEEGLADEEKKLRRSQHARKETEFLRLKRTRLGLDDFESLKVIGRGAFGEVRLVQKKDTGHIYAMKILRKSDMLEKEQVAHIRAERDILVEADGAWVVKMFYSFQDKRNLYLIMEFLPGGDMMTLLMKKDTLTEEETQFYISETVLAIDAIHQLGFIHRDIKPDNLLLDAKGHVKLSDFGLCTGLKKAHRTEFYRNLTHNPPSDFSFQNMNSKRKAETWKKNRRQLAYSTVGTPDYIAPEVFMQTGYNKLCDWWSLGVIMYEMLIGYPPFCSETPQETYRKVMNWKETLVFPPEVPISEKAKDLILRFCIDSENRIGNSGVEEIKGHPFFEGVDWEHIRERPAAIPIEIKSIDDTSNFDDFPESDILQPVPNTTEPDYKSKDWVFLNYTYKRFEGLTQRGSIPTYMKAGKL
Chain of UniProt O75582 (whole entry, looked up): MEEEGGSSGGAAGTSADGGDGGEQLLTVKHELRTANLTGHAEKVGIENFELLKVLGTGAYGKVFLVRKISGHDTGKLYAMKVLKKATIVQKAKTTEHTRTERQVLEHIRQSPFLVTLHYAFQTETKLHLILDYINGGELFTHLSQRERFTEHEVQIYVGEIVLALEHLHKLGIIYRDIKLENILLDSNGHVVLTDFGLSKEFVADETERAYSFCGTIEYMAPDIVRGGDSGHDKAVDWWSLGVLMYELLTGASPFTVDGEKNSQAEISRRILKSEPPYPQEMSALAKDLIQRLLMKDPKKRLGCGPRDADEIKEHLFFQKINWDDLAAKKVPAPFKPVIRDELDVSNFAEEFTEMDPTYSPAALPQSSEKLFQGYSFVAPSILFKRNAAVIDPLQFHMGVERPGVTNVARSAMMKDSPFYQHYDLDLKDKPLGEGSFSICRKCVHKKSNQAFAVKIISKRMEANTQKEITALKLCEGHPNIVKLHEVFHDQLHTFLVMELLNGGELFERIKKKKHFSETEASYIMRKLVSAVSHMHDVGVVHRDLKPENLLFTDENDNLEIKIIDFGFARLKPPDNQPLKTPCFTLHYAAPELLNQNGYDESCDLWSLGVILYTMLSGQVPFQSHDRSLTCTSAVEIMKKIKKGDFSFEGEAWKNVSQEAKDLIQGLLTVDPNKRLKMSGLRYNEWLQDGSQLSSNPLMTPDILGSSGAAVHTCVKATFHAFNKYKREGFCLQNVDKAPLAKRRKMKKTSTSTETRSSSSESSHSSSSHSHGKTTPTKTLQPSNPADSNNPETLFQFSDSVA
Chain of UniProt Q9Y6E0 (whole entry, looked up): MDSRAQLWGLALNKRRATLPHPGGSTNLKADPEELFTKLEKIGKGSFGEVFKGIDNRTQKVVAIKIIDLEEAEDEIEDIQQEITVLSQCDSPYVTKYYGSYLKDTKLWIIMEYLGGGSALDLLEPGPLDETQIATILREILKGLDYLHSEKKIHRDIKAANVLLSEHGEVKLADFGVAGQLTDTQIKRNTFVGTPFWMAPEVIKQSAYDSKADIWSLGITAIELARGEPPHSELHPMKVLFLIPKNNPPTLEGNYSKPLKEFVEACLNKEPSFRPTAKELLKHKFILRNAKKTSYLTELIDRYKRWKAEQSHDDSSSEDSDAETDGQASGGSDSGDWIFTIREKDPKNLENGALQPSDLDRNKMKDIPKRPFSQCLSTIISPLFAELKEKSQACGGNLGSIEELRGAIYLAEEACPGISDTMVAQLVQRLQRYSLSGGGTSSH
Chain of UniProt Q8IVW4 (whole entry, looked up): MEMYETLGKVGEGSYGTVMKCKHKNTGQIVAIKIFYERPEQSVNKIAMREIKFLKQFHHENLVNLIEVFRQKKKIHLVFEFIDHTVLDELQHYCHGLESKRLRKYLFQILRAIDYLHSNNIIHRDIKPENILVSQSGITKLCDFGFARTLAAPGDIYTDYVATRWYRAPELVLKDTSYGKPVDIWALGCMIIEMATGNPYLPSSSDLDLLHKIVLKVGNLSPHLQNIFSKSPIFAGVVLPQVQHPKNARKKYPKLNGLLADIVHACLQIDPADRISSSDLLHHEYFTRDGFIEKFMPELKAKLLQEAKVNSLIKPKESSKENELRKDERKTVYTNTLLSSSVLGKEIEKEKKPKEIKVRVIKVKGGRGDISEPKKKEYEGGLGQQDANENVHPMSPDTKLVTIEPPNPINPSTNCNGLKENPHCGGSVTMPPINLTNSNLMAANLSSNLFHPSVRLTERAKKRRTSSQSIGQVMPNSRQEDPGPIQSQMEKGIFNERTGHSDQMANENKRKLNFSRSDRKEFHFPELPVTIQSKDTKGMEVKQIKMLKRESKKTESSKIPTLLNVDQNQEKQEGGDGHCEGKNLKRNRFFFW
Chain of UniProt P49840 (whole entry, looked up): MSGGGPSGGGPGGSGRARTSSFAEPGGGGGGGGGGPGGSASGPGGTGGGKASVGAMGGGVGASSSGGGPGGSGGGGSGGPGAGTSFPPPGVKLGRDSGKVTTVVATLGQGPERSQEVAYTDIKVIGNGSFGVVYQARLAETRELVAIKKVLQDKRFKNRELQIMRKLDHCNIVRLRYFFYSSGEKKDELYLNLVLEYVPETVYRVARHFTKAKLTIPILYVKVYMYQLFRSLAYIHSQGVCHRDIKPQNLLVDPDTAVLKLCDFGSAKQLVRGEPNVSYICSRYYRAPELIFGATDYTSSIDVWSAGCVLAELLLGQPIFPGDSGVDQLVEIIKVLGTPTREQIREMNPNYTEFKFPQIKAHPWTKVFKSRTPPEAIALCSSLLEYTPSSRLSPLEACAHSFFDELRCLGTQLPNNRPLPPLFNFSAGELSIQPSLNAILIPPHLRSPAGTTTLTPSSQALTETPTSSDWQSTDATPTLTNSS

Study 1 — observed: enzyme activity; mode: inhibitor; concentration: 10 µM
Target: Calcium/calmodulin-dependent protein kinase type II subunit alpha (CAMK2A, Homo sapiens, UniProt Q9UQM7)
Chain of UniProt Q9UQM7 (whole entry, looked up): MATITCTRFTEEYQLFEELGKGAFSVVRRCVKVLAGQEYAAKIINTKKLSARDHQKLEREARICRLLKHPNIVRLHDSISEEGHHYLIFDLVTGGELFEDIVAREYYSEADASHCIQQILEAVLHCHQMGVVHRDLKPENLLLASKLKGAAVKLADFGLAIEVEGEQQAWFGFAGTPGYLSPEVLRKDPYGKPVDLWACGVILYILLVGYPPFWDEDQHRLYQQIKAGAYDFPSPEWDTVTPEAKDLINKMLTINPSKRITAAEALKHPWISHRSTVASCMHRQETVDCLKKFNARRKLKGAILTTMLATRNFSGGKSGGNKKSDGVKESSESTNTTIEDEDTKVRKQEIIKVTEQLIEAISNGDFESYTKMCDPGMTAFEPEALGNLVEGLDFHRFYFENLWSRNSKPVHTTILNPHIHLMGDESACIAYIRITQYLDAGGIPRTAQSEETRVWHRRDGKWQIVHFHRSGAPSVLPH
`CNC(=O)c1ccc(N2C(=S)N(c3ccc(C#N)c(C(F)(F)F)c3)C(=O)C2(C)C)cc1F` gave an inhibition of -16%.
The inhibition of `CC(=O)c1c(C)c([N+](=O)[O-])c(C(C)(C)C)c([N+](=O)[O-])c1C` is reported as 6%.
With `CC1(C)Oc2cc3oc(=O)ccc3cc2C[C@@H]1O` the inhibition was -35%.
With `O[C@@H](CNC[C@H](O)[C@H]1CCc2cc(F)ccc2O1)[C@@H]1CCc2cc(F)ccc2O1` the inhibition was 4%.
The inhibition of `COc1ccc(C(C)=O)c(O)c1` is reported as 3%.
With `CC(=O)O[C@@H]1CC[C@@]2(C)[C@@H](CC[C@]3(C)[C@@H]2[C@H](O)C=C2[C@@H]4[C@@H](C)[C@H](C)CC[C@]4(C)CC[C@]23C)[C@@]1(C)C(=O)O` the inhibition was 12%.
With `CC(C)=CCC/C(C)=C/COc1ccc2ccc(=O)oc2c1` the inhibition was -10%.
With `C=C1C(=O)O[C@H]2C[C@@H](C)[C@@H]3CCC(=O)[C@@]3(C)[C@@H](OC(C)=O)[C@H]12` the inhibition was -3%.
`O[C@@H](c1cc(C(F)(F)F)nc2c(C(F)(F)F)cccc12)[C@H]1CCCCN1` has an inhibition of 4%.
With `CC[C@]12CCCN3CCc4c(n(c5ccccc45)[C@@](O)(C(=O)OC)C1)[C@@H]32` the inhibition was 7%.
For `CO/N=C1\C[C@]2(C[C@@H]3C[C@@H](C/C=C(\C)C[C@@H](C)/C=C/C=C4\CO[C@@H]5[C@H](O)C(C)=C[C@@H](C(=O)O3)[C@]45O)O2)O[C@H](/C(C)=C/C(C)C)[C@H]1C`, the inhibition was 2%.
`O=c1oc2ccccc2cc1O` gave an inhibition of -22%.
The inhibition of `CC(C)=CC/C=C(\C)[C@H]1CC[C@]2(C)[C@@H]1[C@H](O)C[C@@H]1[C@@]3(C)CC[C@H](O[C@@H]4O[C@H](CO)[C@@H](O)[C@H](O)[C@H]4O[C@@H]4O[C@H](CO)[C@@H](O)[C@H](O)[C@H]4O)C(C)(C)[C@@H]3CC[C@]12C` is reported as 18%.
`CC1=CC[C@@H]2C[C@H]1C2(C)C` gave an inhibition of 3%.

Study 2 — observed: enzyme activity; mode: inhibitor; concentration: 0.5 µM; relative to: control
Target: Serine/threonine-protein kinase ULK1 (ULK1, Homo sapiens, UniProt O75385)
Chain of UniProt O75385 (whole entry, looked up): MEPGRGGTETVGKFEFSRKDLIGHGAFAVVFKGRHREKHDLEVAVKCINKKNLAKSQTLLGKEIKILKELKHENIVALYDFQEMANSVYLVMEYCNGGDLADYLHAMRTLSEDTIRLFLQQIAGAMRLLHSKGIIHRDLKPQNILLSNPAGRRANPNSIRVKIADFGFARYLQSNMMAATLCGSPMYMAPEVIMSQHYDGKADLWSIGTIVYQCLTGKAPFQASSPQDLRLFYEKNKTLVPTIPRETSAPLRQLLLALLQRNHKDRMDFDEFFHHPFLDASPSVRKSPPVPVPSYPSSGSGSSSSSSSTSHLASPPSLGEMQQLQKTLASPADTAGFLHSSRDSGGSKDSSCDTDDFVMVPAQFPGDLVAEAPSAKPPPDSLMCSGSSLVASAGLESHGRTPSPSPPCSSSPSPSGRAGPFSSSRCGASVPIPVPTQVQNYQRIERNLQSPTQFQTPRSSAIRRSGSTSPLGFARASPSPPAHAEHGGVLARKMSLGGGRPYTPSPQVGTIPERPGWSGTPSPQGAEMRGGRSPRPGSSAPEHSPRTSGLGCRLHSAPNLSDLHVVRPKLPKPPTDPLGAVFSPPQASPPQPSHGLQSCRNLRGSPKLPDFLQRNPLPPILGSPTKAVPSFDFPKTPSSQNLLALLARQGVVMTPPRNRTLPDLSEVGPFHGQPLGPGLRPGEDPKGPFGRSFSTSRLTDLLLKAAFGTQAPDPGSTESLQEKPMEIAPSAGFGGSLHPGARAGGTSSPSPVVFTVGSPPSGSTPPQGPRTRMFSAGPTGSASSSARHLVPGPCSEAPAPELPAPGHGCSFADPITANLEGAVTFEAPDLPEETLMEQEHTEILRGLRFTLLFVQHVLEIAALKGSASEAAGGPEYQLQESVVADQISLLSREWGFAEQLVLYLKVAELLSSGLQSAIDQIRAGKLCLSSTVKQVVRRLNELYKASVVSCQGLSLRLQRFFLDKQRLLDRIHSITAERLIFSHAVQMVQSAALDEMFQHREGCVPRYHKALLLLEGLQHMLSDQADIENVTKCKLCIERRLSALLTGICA
`N#C/C(=C(/N)SC1C=CC=CC1)c1cccc(C(O)c2ccncc2)c1` (centres unmarked) has a remaining activity of 103%.
With `Clc1ccc(Nc2nnc(Cc3ccncc3)c3ccccc23)cc1` the remaining activity was 107%.
For `NC(=O)c1cccc(-c2cc(Nc3ccc(OC(F)(F)F)cc3)ncn2)c1`, the remaining activity was 97.5%.
With `FC(F)(F)c1ccc(/C=C/c2nc(COc3ccc(CCCCn4ccnn4)cc3)co2)cc1` the remaining activity was 87.2%.
With `Nc1nc(Nc2ccc(S(N)(=O)=O)cc2)nn1C(=S)Nc1c(F)cccc1F` the remaining activity was 5.03%.
With `c1cc(-c2cnn3cc(-c4ccc(OCCN5CCCCC5)cc4)cnc23)ccn1` the remaining activity was 44.3%.
For `O=C1c2ccccc2-c2nc3nnnn3nc21`, the remaining activity was 107%.
With `O=Nc1c(-c2c(O)[nH]c3ccccc23)[nH]c2ccccc12` the remaining activity was 78.9%.
The remaining activity of `O=C(c1ccccc1)c1ccc(N2CCOCC2)cc1O` is reported as 98.9%.
`N#CC(c1ccnc(NCCc2cccnc2)n1)c1nc2ccccc2s1` (centres unmarked) gave a remaining activity of 98.5%.
For `COc1cc2c(Nc3ccc(Br)cc3F)ncnc2cc1OCC1CCN(C)CC1`, the remaining activity was 95.7%.
With `COc1cc2c(N3CCN(C(=O)Nc4ccc(OC(C)C)cc4)CC3)ncnc2cc1OCCCN1CCCCC1` the remaining activity was 92.1%.

Study 3 — technique: competition with immobilised ligand; concentration: 1 µM
SMILES: Cn1nc(C(F)(F)F)cc1-c1cnc(N2CCc3cc(S(=O)(=O)Nc4c(F)cc(Cl)cc4F)cc(N4CCCC4=O)c32)nc1
It gave 94% for remaining binding (Insulin-like growth factor 1 receptor (IGF1R, Homo sapiens, UniProt P08069); cell-free assay).
The remaining binding was 96% (Death-associated protein kinase 1 (DAPK1, Homo sapiens, UniProt P53355); cell-free assay).
The remaining binding was 79% (Mitogen-activated protein kinase kinase kinase 7 (MAP3K7, Homo sapiens, UniProt O43318); cell-free assay).
Tyrosine-protein kinase ABL1, non-phosphorylated (ABL1, Homo sapiens, UniProt P00519, T315I); cell-free assay — remaining binding: 74%.
For Mitogen-activated protein kinase kinase kinase kinase 3 (MAP4K3, Homo sapiens, UniProt Q8IVH8); cell-free assay: remaining binding read 84%.
For Serine/threonine-protein kinase MRCK alpha (CDC42BPA, Homo sapiens, UniProt Q5VT25); cell-free assay: remaining binding read 100%.
For Vascular endothelial growth factor receptor 3 (FLT4, Homo sapiens, UniProt P35916); cell-free assay: remaining binding read 96%.
The remaining binding was 100% (Tyrosine-protein kinase SYK (SYK, Homo sapiens, UniProt P43405); cell-free assay).
For Protein-tyrosine kinase 2-beta (PTK2B, Homo sapiens, UniProt Q14289); cell-free assay: remaining binding read 100%.
ALK tyrosine kinase receptor (ALK, Homo sapiens, UniProt Q9UM73); cell-free assay — remaining binding: 80%.
For Serine/threonine-protein kinase 38-like (STK38L, Homo sapiens, UniProt Q9Y2H1); binding: remaining binding read 88%.
Serine/threonine-protein kinase LATS1 (LATS1, Homo sapiens, UniProt O95835); cell-free assay — remaining binding: 99%.
Ankyrin repeat and protein kinase domain-containing protein 1 (ANKK1, Homo sapiens, UniProt Q8NFD2); cell-free assay — remaining binding: 96%.
Epidermal growth factor receptor (EGFR, Homo sapiens, UniProt P00533, G719C); cell-free assay — remaining binding: 100%.
It gave 90% for remaining binding (Serine/threonine-protein kinase 24 (STK24, Homo sapiens, UniProt Q9Y6E0); cell-free assay).
It gave 100% for remaining binding (Mitogen-activated protein kinase 6 (MAPK6, Homo sapiens, UniProt Q16659); cell-free assay).
The remaining binding was 81% (cAMP-dependent protein kinase catalytic subunit beta (PRKACB, Homo sapiens, UniProt P22694); cell-free assay).
The remaining binding was 97% (Ribosomal protein S6 kinase alpha-5, C-terminal kinase domain (RPS6KA5, Homo sapiens, UniProt O75582); cell-free assay).
The remaining binding was 100% (Cyclin-dependent kinase-like 3 (CDKL3, Homo sapiens, UniProt Q8IVW4); binding).
It gave 100% for remaining binding (Serine/threonine-protein kinase PAK 5 (PAK5, Homo sapiens, UniProt Q9P286); cell-free assay).
For Glycogen synthase kinase-3 alpha (GSK3A, Homo sapiens, UniProt P49840); cell-free assay: remaining binding read 95%.
Serine/threonine-protein kinase PRP4 homolog (PRPF4B, Homo sapiens, UniProt Q13523); cell-free assay — remaining binding: 100%.

Study 4 — species: human; sample: microsomes or S9; concentration: 2 µM; time: 0.5 h
`CCC(C)NCc1ccccc1-c1ccc(S(C)(=O)=O)cc1` (centres unmarked) gave a remaining compound of 96.5%.
`CC1CC(N(C(=O)Nc2ccc(Cl)c(Cl)c2)c2ccccc2)c2ccccc2N1C(=O)Nc1ccc(Cl)c(Cl)c1` (centres unmarked) gave a remaining compound of 55.7%.
For `Cn1c(=O)c2c(-c3ccccc3Br)n(-c3ccc4c(c3)nc(CO)n4C)cc2n(C)c1=O`, the remaining compound was 27%.
The remaining compound of `Cc1ccc(C(C)C)c(OCCNC(=O)CCCCNS(=O)(=O)c2ccccc2)c1` is reported as 0.236%.
`O=C(C1Cc2cc(Cl)ccc2O1)N1CCCC(O)(c2ccc(F)cc2)CC1` (centres unmarked) has a remaining compound of 47.3%.
With `CC(C)S(=O)(=O)c1ccccc1Nc1c(Cl)cnc(Cl)c1Cl` the remaining compound was 58.4%.
With `O=S(=O)(Nc1cc(Cl)c(Cl)cc1Cl)c1cc(Cl)c(Cl)cc1Cl` the remaining compound was 59.6%.
The remaining compound of `COCCOc1cc(=O)n2c(c1C(=O)NCCC1=CCCCC1)CCOCC2` is reported as 48.6%.
`COc1cc(C)ccc1OCCN1CC[C@H]2CNC[C@H]21` has a remaining compound of 56.4%.
With `CCOC(=O)c1c(C(F)(F)F)[nH]n2c(C(F)F)nnc12` the remaining compound was 33%.
`Cc1noc2nc3c(c(C(=O)N4CCC5(CCCN(C)C5=O)C4)c12)CCC3` (centres unmarked) has a remaining compound of 70.3%.
`Cc1ccc(NC(=O)C(Cc2cccc(C)c2)c2nnn[nH]2)cc1` (centres unmarked) gave a remaining compound of 63.1%.
`CN(C(=O)CN1C(=O)COc2cc(Cl)c(Cl)cc21)C(CN1CCCC1)c1ccc(-c2ncccn2)cc1` (centres unmarked) gave a remaining compound of 72.6%.
With `CCOC(=O)c1cc2n(n1)CC(C)(C(=O)NCCCOC)N(c1ccc(C)c(Cl)c1)C2=O` (centres unmarked) the remaining compound was 0.429%.
`COc1ccc(Cn2nc(-c3ccc(O)cc3)n(-c3ccc(OCCN(C)C)cc3)c2=O)cc1` gave a remaining compound of 65.1%.
`O=C(Nc1ccccc1-c1cn2ccccc2n1)c1ccc(Cn2ccnc2)cc1` gave a remaining compound of 0.0174%.
`O=C(Nc1ccc(Nc2ccc(-n3cccn3)nn2)cc1)c1cccc(Cl)c1` has a remaining compound of 51.2%.

Some of these lines once more (study 2):
`N#C/C(=C(/N)SC1C=CC=CC1)c1cccc(C(O)c2ccncc2)c1` (centres unmarked) has a remaining activity of 103%.
With `Clc1ccc(Nc2nnc(Cc3ccncc3)c3ccccc23)cc1` the remaining activity was 107%.
For `NC(=O)c1cccc(-c2cc(Nc3ccc(OC(F)(F)F)cc3)ncn2)c1`, the remaining activity was 97.5%.
